Measurements collected from several papers.
Each numbered part is a random draw from the data of one study; scales do not carry over between parts.

Series 1 — method: RNA Bind-n-Seq; form: RNA; sample: in vitro; tested at: 200 nM; setting: whole 134-nt RNA, ends assumed; added: 150 mM KCl; reference: input library; direction: higher = stronger binding
Target: Fragile X messenger ribonucleoprotein 1, C-terminal low-complexity region (Fmr1, Mus musculus, UniProt P35922)
The log2 enrichment of `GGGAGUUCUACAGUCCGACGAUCUAACUUUAGAGGAGGAUCUGAUGGAUAUGGCAGUGGACGUGGAUUUGGGGAUGGCUAUAAUUGGUAUGGAGGAGGACCUGGAGGUGGCAAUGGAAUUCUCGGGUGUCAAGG` is reported as 0.168.
For `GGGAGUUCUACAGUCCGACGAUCCCUCAAGUCCUGUGCUACACAUCGUAUGUACCGAAUCGGUGGAAAGGUUUGGAAAGUAUUAUGUUACGCCGUUCGGAUCUGCACUUCCAGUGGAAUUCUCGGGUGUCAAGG`, the log2 enrichment was -0.277.
`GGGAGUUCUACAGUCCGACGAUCCCUGUGCUACACAUCGUAUGUACCGAAUCGGGUUUUUUGGGGUUUUUUGGGUUUUUUGGGGAAAGUAUUAUGUUACGCCGUUCGGAUCUGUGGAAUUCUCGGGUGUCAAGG` has a log2 enrichment of -0.543.
For `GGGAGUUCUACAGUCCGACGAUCACCAUGCAGGUGGGCAUCUUCGGGAAGUGGGGCAAGGGGGGGAUAGGGAGGGGGGUAACACUUUGGGAACAGGUGGUCCCAGGUCGUUUCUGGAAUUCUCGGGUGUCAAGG`, the log2 enrichment was 0.871.
With `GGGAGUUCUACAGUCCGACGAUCAGUCCUGUGCUACACAUCGUAUGUACCGAAUCGGGAAAAAGGGAAAAAGGGUUUGGGAAAGUAUUAUGUUACGCCGUUCGGAUCUGCACUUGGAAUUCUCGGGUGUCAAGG` the log2 enrichment was -0.066.
The log2 enrichment of `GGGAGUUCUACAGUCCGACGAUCAAGUCCUGUGCUACACAUCGUAUGUACCGAAUCGGAAAAAGGUUUUUUUGGUUUGGAAAGUAUUAUGUUACGCCGUUCGGAUCUGCACUUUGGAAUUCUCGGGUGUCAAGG` is reported as -1.35.
`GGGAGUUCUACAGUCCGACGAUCACCAUGCAGGUGGGCAUCUUUGGGAAGUGGGGCAAGGGGGGGAUAGGGAGGGGGGUAACACUUUGGGAACAGUUGGUCCCAGGUCGUUUCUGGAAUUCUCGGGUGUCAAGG` gave a log2 enrichment of 0.515.
The log2 enrichment of `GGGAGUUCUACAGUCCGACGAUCUGGGAGGUGGAUUUUGUUUAUUUUUUUAGCUCAUUUCCAGGAGUGGGAAUUUUUUUUUAAUAUGUGUCAUGAAUAAAGUUGUUUUUGAAAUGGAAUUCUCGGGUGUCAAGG` is reported as 0.0249.
`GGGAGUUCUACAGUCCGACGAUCCUCAAGUCCUGUGCUACACAUCGUAUGUACCGAAUCGGGGUGGUGGGGUGGGGAAAGUAUUAUGUUACGCCGUUCGGAUCUGCACUUCCAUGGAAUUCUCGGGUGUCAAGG` has a log2 enrichment of 0.796.
The log2 enrichment of `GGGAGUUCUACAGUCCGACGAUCACCAUGCAGGUGGGCAUCUUUGGGAAGUGGGGCAAGGGGGGGAUAGGGAGGGGGGUAACACUUUGGGAACAGGUGGUGCCAGGUCGUUUCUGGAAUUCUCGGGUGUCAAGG` is reported as 0.713.

Series 2 — method: aptamer microarray, sandwich; form: DNA with 2'F-ANA; sample: in vitro; tested at: 200 nM; added: Cy3 exosite-II aptamer, 400 nM; direction: higher = stronger binding; oligonucleotide: GGTTGGTGTGGTTGG
Target: Prothrombin, mature alpha-thrombin (F2, Homo sapiens, UniProt P00734)
Setting: whole 15-mer aptamer, many near background
For `2'F-ANA at 3 4 7 10 11 12 13 14 15`, “mean fluorescence intensity” read 204 a.u.
For `2'F-ANA at 1 4 7 8 9 10 12 13 15`, “mean fluorescence intensity” read 111 a.u.
Under “mean fluorescence intensity”, `2'F-ANA at 3 4 5 6 7 11 12 13 14 15` is recorded as 60.7 a.u.
Under “mean fluorescence intensity”, `2'F-ANA at 1 2 5 6 12 14` is recorded as 44.8 a.u.
`2'F-ANA at 2 3 8 9 10 12 13 14 15`: “mean fluorescence intensity” 263 a.u.
`2'F-ANA at 4 8 9 10 11 15`: “mean fluorescence intensity” 74.1 a.u.
`2'F-ANA at 2 4 5 6 7 10 15`: “mean fluorescence intensity” 46.9 a.u.
For `2'F-ANA at 5 6 10 12 13`, “mean fluorescence intensity” read 152 a.u.
For `2'F-ANA at 2 3 5 7 8 10 11 12`, “mean fluorescence intensity” read 59.4 a.u.
`2'F-ANA at 1 2 3 4 6 9 10 11 12 14 15`: “mean fluorescence intensity” 79 a.u.
`2'F-ANA at 1 4 5 6 7 10 13`: “mean fluorescence intensity” 46.7 a.u.
`2'F-ANA at 1 2 4 6 10 11 12 13 15`: “mean fluorescence intensity” 90.8 a.u.
Under “mean fluorescence intensity”, `2'F-ANA at 6 8 10 11 13 15` is recorded as 129 a.u.
Under “mean fluorescence intensity”, `2'F-ANA at 1 2 4 8 9 11 12 15` is recorded as 244 a.u.
`2'F-ANA at 1 2 3 4 5 8 9 10 11 13 15` — result for “mean fluorescence intensity”: 58.4 a.u.
`2'F-ANA at 1 3 7 8 9 10 11 12 13 14`: “mean fluorescence intensity” 63 a.u.
`2'F-ANA at 3 5 6 7 8 11 13 14 15`: “mean fluorescence intensity” 87 a.u.
Under “mean fluorescence intensity”, `2'F-ANA at 1 3 4 5 10 11 12 15` is recorded as 87.8 a.u.

Series 3 — method: RNA Bind-n-Seq; form: RNA; sample: in vitro; tested at: 365 nM; reference: no-protein control; direction: higher = stronger binding
Target: RNA binding protein fox-1 homolog 2, RRM domain, GST-SBP tag (RBFOX2, Homo sapiens, UniProt O43251-10, residues 100-194)
Setting: natural RNA segment, single round, ends assumed
Target sequence (chain): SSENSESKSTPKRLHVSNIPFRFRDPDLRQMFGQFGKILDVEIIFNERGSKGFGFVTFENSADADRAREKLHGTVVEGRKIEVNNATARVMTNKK
Under “RBNS enrichment (R)”, `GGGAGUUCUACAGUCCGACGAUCCAUCACUUAGUUAUUGGGAAUUUCUUUGUUGGAAACAGGAAAAUUUUUUUAGAUUAUUUGGUGUACGGUUUUGCUCACAACAAUAGGUGGAAGUUGCUAGUGCAGUCUUGUGGAAUUCUCGGGUGCCAA` is recorded as 0.749.
For `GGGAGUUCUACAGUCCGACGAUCUUAAACUCAUGAAGUAUGGGUUCAGUGGAAAUGUUUGGAACUCUGAAGGAUUUAGACAAGGUUUUGAAAAGGAUAAUCAUGGGUUAGAAGGAAGUGUUUGAAAGUCACUUUGGAAUUCUCGGGUGCCAA`, “RBNS enrichment (R)” read 1.63.
Under “RBNS enrichment (R)”, `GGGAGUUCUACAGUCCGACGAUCAAGAGAUUCUUCCACCUUACUCUGCAGCUGCCUCUGGAAGAACUUUGGGCUGCUGGGGCUGAGCUGUCUGCUUGAUGCUGACAGACUCCUAGUGUCAGCUCCCAGGCCGCUGGAAUUCUCGGGUGCCAA` is recorded as 0.329.
`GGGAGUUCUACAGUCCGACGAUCAGUGUGUUGGGAAUUGCAUGCCAUCUCCACCCUGAGCCUGACCUUUCUGAGUGACAUGGGUGUGCCAGGCUAGACUAGGAGGUUCCGGUGUCUGGAAAAGCACUUUACAGUGGAAUUCUCGGGUGCCAA` — result for “RBNS enrichment (R)”: 27.6.
`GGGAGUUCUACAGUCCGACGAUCCUCUGUGUGUGCGAGCACGCGUGUCUGUGUUUGUGUGUGCAUAGUUCUGUGGUUUUAGACACGCUUUCUUGUAGUGCUUCUGCAAAAAACAAAAAAGGGACUUAUUUUGCUGGAAUUCUCGGGUGCCAA`: “RBNS enrichment (R)” 2.08.
`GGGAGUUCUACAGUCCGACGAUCAAGAAUUUUGUUUAUAUUGGGUUGGGGACCUAUAGGUUUAAAAUAGAAUGUCAGUCAGCUGACUUAAAAAACAUUGGUUUUACUAAGUCUGCCUUCCCCUUCUAAGGAAGUGGAAUUCUCGGGUGCCAA`: “RBNS enrichment (R)” 0.861.

Series 4 — method: RNA Bind-n-Seq; form: RNA; sample: in vitro; tested at: not given; reference: input RNA pool; direction: higher = stronger binding
Target: RING finger protein unkempt homolog, zinc fingers 1-6, GST-SBP tag (UNK, Homo sapiens, UniProt Q9C0B0, residues 30-357)
Setting: RNA with constant flanks, human and mouse sites, ends assumed
Construct (chain): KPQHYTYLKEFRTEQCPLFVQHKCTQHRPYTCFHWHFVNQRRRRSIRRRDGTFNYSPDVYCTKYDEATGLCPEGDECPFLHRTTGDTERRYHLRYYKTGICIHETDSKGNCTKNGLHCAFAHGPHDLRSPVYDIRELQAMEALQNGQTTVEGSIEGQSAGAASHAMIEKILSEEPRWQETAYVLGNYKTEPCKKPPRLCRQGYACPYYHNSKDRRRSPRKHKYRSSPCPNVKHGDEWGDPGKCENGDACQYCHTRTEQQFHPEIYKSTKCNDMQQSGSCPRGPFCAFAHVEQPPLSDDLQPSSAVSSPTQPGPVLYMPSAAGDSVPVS
`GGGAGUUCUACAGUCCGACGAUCGAGGAUGGAGAAGACCAGCCAAAGCAAGUUUAUGUUGAUAAGUUGGCUGAAUUAAAAAAUCUAGGUCAACCUAUUAAGAUACGUUUCCAGGAAUCUGAAGAACGACCAAAAUUAUUUGAACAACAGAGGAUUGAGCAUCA` gave a bound/input enrichment of 0.392 ratio.
With `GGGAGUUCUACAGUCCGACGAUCCCCAAAACUAAUCUUCUGUACAAAGUUGUGUGCAUAUUGAGAUGAUUAGUUAAGGCAGUGUAGUUUUUUAAAUUUUUUCUGUAUAAAUUUCUUUCCUUCUUCCCCACCUCAGGCACCUACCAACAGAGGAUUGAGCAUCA` the bound/input enrichment was 22.3 ratio.
For `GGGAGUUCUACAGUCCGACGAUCAUAGUGAAAGGAGGCGCCGCAGAGAAGAGUGGCCUCCUGCACGAAGGAGACGAAGUUCUGGAGAUCAACGGCAUUGAAAUCCGGGGCAAGGAUGUCAAUGAGGUUUUUGACUUGUUGUCUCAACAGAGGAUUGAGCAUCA`, the bound/input enrichment was 0.105 ratio.
`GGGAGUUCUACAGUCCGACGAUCCCAUCCCUCAGUGACAGCAUGCCGUCUGUAGCAGAUUCCCACUCCAGUCAUUUUUCUGAAUUUAGCUGCUCAGACUUAGAAAGCAUGAGAACGUCCUGUAGUCACGGCUCCAGUGAUUGCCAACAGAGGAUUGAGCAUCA` gave a bound/input enrichment of 0.461 ratio.
With `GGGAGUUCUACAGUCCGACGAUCGAUGUCAGGACCAUUCUGCUCUCCAUCCAGAGCCUUCUAGGAGAACCCAACAUUGAUAGUCCCUUGAACACACAUGCUGCCGAGCUCUGGAAAAACCCCACAGCUUUUAAGAAGUACCUGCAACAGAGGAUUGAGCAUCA` the bound/input enrichment was 0.223 ratio.
For `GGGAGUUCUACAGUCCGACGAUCGUUAGAAAAAGAAUUACAGCUUUGCAAUAUAACUAAUUGUUUCGCAUAAUUCUGAAUGUAAUAGAUAUGAAUAAUCAGCCUGUGUUUUUAAUGAACUUAUUUGUAUUUUCCCAAUCAUUUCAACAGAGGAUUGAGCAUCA`, the bound/input enrichment was 3.58 ratio.
For `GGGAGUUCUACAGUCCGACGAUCAAAAUAGACUAUGGUGAAUACAUGGAUAAAAAUAAUGUGAGGCGACAAGCAACAACAAUCAUAGCUGAUAAUAUUAUAUUUCUGAGUGACCAGACGAAAGAGAAGGAGUAGAAAGGAUGACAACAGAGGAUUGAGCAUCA`, the bound/input enrichment was 4.51 ratio.
With `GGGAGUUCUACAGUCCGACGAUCACCCAGGGCUGCUACUGCCGCUUGUGGCUUCAGGAUGAAAGGUGAGACCCCGGUGAACAGCACUAUGAGUAUUGGGCAAGCACGCAAGAUGGUGGAACAGCUUAAGAUUGAAGCCAGCUUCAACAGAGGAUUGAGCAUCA` the bound/input enrichment was 0.0969 ratio.
